# Results of several laboratories.
# Lines come from different studies, so protocols differ. Values joined by “and” are separate records of one study, mostly repeats; a detail may differ.
# UniProt O00311, sequence (whole entry, looked up): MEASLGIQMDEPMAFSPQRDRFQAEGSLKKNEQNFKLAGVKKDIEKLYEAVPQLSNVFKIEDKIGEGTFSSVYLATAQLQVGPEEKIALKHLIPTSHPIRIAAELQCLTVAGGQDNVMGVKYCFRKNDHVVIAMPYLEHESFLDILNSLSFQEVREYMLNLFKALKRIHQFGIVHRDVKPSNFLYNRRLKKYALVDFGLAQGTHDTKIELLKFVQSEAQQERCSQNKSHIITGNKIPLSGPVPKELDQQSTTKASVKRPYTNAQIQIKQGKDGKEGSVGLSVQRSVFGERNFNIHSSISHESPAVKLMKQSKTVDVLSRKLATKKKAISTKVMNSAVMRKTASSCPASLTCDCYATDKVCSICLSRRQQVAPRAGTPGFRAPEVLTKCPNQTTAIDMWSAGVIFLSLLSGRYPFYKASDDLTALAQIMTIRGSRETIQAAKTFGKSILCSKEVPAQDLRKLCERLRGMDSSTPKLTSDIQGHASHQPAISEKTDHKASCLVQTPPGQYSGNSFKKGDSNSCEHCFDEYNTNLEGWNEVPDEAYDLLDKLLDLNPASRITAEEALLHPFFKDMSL
SMILES,target or system,assay,test system,setting,how to read,quantity,result
CC(=O)c1c(C)c2cnc(Nc3ccc(C4CCN(CCS(C)(=O)=O)CC4)cn3)nc2n(C2CCCC2)c1=O,,,"human, plasma","oral, 100 mg twice daily, single dose, monotherapy",,CL,1630 mL/min
O=C1Nc2cc3[nH]nc(-c4ccncc4)c3cc2CN1Cc1ccccc1,,CTCAE v4.03,advanced solid tumour patients,"intravenous, 1.8 mg/kg, schedules 1/2",,patients with headache,0%
C[C@]1(O)C[C@@](N)(c2ccc(-c3nc4n(c3-c3ccccc3)COc3ccncc3-4)cc2)C1,,,"human, advanced or metastatic solid tumours","intermittent, dose escalation total, any grade",,patients with Dyspnea TEAE,14.3%
CCN1[C@@H](C(=O)NC23CCC(C(=O)O)(CC2)CC3)[C@H](c2cccc(Cl)c2F)[C@]2(C(=O)Nc3cc(Cl)ccc32)C12CCCCC2,,,patients with advanced solid tumours,"oral, 200 mg",,Myalgia incidence,0%
[O-][S+]1CCc2nc(N3CCC(c4ncc(Cl)cn4)CC3)nc(NC3(CO)CCC3)c21 (centres unmarked),,refers to: nervous system disorders,healthy male humans,12 mg twice daily,,adverse event incidence,37.5%
CCCCCCCCCCCCCCCC(=O)N[C@@H](CCC(=O)NCCCC[C@H](NC(=O)[C@H](CC(=O)O)NC(=O)[C@H](CO)NC(=O)[C@@H](NC(=O)[C@H](Cc1ccccc1)NC(=O)[C@@H](NC(=O)CNC(=O)[C@H](CCC(N)=O)NC(=O)[C@H](CO)NC(=O)[C@@H](N)Cc1c[nH]cn1)[C@@H](C)O)[C@@H](C)O)C(=O)N[C@@H](CO)C(=O)N[C@@H](CCC(=O)O)C(=O)N[C@@H](Cc1ccc(O)cc1)C(=O)N[C@@H](CC(C)C)C(=O)N[C@@H](CC(=O)O)C(=O)N[C@@H](CO)C(=O)N[C@@H](CCC(=O)O)C(=O)N[C@@H](CCCNC(=N)N)C(=O)N[C@@H](C)C(=O)N[C@@H](CCCNC(=N)N)C(=O)N[C@@H](CC(=O)O)C(=O)N[C@@H](Cc1ccccc1)C(=O)N[C@H](C(=O)N[C@@H](C)C(=O)N[C@@H](Cc1c[nH]c2ccccc12)C(=O)N[C@@H](CC(C)C)C(=O)N[C@@H](CCC(=O)O)C(=O)N[C@@H](C)C(=O)NCC(=O)NCC(=O)O)C(C)C)C(=O)O,,,"human, CrCl ≥30 to <45 mL/min","sc, 100 µg single dose",,injection site erythema,0%
COc1ccc(C[C@@H]2NC(=O)[C@H]([C@@H](C)O)NC(=O)[C@@H]3[C@@H]4CCN3C(=O)[C@@H]3Cc5cn(c6ccc(F)cc56)CCCCCCN(Cc5ccc(cc5)CCNC(=O)[C@]5(C)CCCN5C2=O)C(=O)CCC(=O)N[C@@H](C)C(=O)N[C@H](CNC(=O)CCCCC[N+](C)(C)C)C(=O)N[C@@H](Cc2cccc(c2)CNC(=O)CO4)C(=O)N3)cc1,,refers to: skin irritation,human,Study-003 safety,,adverse events,6.5%
CCCCN(C)CCCNC(=O)c1ccc2nc(N3CCCCC3)sc2c1,Vero-E6,CellTiter-Glo ATP,,"concentration not given, 72 h, retest 8-point duplicates","reference: DMSO 0%, hyamine -100%, more negative, more toxic",cytotoxicity efficacy,0%
CCCC(CCC)NC(=O)c1ccc2c(c1)OCO2,,,"Swiss albino CD-1 mice, male, bone marrow","intraperitoneal, 350 mg/kg, 24 h",,micronucleated PCEs,0.1%
CC1CCN(CCCNC(=O)c2cc(Sc3ccc(F)cc3)nc3ccccc23)CC1,Vero-E6,CellTiter-Glo ATP,,"72 h, retest 8-point duplicates","reference: DMSO 0%, hyamine -100%, more negative, more toxic",maximum response,-8.01%
COS(C)(=O)=O,,,"male Hsd:ICR (CD-1) mouse, bone marrow","oral, 40 mg/kg/day, positive control",,micronucleated PCE per 1000 PCE,6.7
Cn1cc(-c2nc(N[C@@H]3CCCC[C@@H]3N)c(F)c3c2C(=O)NC3)cn1,,refers to: gingival bleeding,patients with relapsed or refractory AML,"oral, 100 mg once daily",,hemorrhagic adverse events,14%
C[C@@H]1OC(=O)NN=C1c1ccc(-c2ccc(F)cc2)c(C(F)(F)F)c1,,"phase I trial, refers to: AST increased worst grade 1",human patients,5 mg loading then 0.25 mg daily,,patients with adverse event,0%
COc1ccc(-c2c(-c3ccc(C#N)c(F)c3)nc(N3CCC(N)CC3)n(C)c2=O)cc1F,,refers to: Leukopenia,human patients,"oral, dose not given, grade 3 to 4, dose escalation, NG",,treatment-related adverse event incidence,0%
O=S(=O)(Nc1ccccc1)c1ccc(NC(=S)Nc2ccccc2)cc1,,refers to: EO%,"female mouse, blood","oral, 5 mg/kg daily, 14 days",,blood cell fraction,0.67%
CCc1ccc(CC/C=C/c2ccc3c(c2)C(=O)CC3)cc1,,,"Sprague-Dawley rat, male","oral, 30 mg/kg/day, 14 days",,ALT serum activity,53.3 U/L
CC(C)N(CCc1c[nH]c2cccc(OC(=O)CCCC(=O)O)c12)C(C)C.Cl,,,"male beagle dog, plasma","subcutaneous, 1 mg/kg",,AUC(0-inf),645 ng·h/mL
COc1cc2c(Oc3ccc4[nH]c(C)cc4c3F)ccnc2cc1OCC1(N)CC1,,,paediatric recurrent refractory sarcoma,"concentration not given, whole group",,grade 3 Hematuria,2.9%
CC(C)[C@@H]1NC(=O)CNC(=O)[C@H](CC(N)=O)NC(=O)[C@H](CCCNC(=N)N)NC(=O)[C@H](Cc2ccc(O)cc2)NC(=O)[C@H](C(C)C)NC(=O)[C@@H](NC(=O)[C@@H](NC(=O)[C@H](CC(N)=O)NC(=O)[C@H](Cc2c[nH]c3ccccc23)NC(=O)[C@H](C)NC(=O)[C@H](Cc2ccccc2)NC(=O)CN)C(C)C)CSSC[C@@H](C(=O)N[C@@H](Cc2cnc[nH]2)C(=O)N[C@@H](CCCNC(=N)N)C(=O)N[C@@H](CCCNC(=N)N)C(=O)N[C@@H](C)C(=O)N[C@@H](CC(N)=O)C(N)=O)NC(=O)[C@H](C(C)C)NC(=O)[C@H](CCCNC(=N)N)NC1=O,,HPLC,mouse kidney homogenate 50 mg/mL,"8.00 h, 37 °C",,peptide remaining,9.26% and 7.83% and 12.3%
Cn1cncc1-c1c(F)cncc1NC(=O)c1c(N)nn2cc(F)cnc12,,,human patients,"oral, 80 mg once daily, 21 days",,dose-limiting toxicity platelet decrease,0%
Cc1ccc(F)c2cc(C(=O)N[C@@H]3CCC[C@H](N4CC[C@H](N(C)S(C)(=O)=O)C4)C3)[nH]c12,,,CD1 mouse,"intravenous, 1 mg/kg",,Vss,8.15 L/kg
COc1ccc2c(c[n+](C)c3c4cc5c(cc4ccc23)OCO5)c1OC,,,"rat, plasma","dose not given, together with: ketoconazole",reference: with over without ketoconazole,AUC(0-inf) fold increase,1.5
CC(C)CC(=O)OC[C@H]1O[C@@](C#N)(c2ccc3c(N)ncnn23)[C@H](O)[C@@H]1O,,plasma protein binding,rat plasma,"0.9 µM, time not given",,recovery,87%
Cc1ccc2ccccc2c1,,,pooled human liver microsomes,"2.5 µM, pH 7.4",,metabolism rate,637 pmol/min/mg
C[C@]1(CO)Cc2ncn(-c3ccc(C#N)c(Cl)c3)c2C(=O)O1,,,"human, plasma","20 mg single dose, geometric mean",,half-life,5.5 h
CC(=O)Nc1cccc(-n2c(=O)n(C3CC3)c(=O)c3c(Nc4ccc(I)cc4F)n(C)c(=O)c(C)c32)c1,,,Japanese patients,"dose not given, part",,discontinuation due to adverse event,17%
CO[C@H]1C[C@@H]2CC[C@@H](C)[C@@](O)(O2)C(=O)C(=O)N2CCCC[C@H]2C(=O)O[C@H]([C@H](C)C[C@@H]2CC[C@@H](OC(=O)NCCOCCOCCOCCOCCOCCOCCOCCOCCC(=O)N3CCc4cc(Cn5nc(-c6ccc7oc(N)nc7c6)c6c(N)ncnc65)ccc4C3)[C@H](OC)C2)C[C@@H](O)[C@H](C)/C=C(\C)[C@@H](O)[C@@H](OC)C(=O)[C@H](C)C[C@H](C)/C=C/C=C/C=C/1C,,,patients with advanced solid tumours,"intravenous, 16 mg weekly, grade 3 or higher",,fatigue incidence,0%
C[C@H]1CN(c2n[nH]c3nc(N[C@H]4CC[C@H](NS(=O)(=O)CCC(F)(F)F)CC4)ncc23)CCO1,"CDC7 (Homo sapiens, UniProt O00311)","inhibitor, Kinobeads competition profiling",,0.032 µM,reference: vehicle,relative abundance,1.03
CCC[C@@](N)(CO)CCc1ccc(OCCCCCC(C)C)cc1,,,dog,"oral, 15 mg/kg",,AUC(0-inf),21.9 µM·h
